Results collected from several papers.
Protocols differ between the studies behind these lines. ± gives the spread as reported.
Beta-lactamase CTX-M-14: Beta-lactamase CTX-M-14 (Escherichia coli, UniProt Q9L5C7)
ALB: Albumin (ALB, Bos taurus, UniProt P02769)
UniProt P02769, sequence (whole entry, looked up): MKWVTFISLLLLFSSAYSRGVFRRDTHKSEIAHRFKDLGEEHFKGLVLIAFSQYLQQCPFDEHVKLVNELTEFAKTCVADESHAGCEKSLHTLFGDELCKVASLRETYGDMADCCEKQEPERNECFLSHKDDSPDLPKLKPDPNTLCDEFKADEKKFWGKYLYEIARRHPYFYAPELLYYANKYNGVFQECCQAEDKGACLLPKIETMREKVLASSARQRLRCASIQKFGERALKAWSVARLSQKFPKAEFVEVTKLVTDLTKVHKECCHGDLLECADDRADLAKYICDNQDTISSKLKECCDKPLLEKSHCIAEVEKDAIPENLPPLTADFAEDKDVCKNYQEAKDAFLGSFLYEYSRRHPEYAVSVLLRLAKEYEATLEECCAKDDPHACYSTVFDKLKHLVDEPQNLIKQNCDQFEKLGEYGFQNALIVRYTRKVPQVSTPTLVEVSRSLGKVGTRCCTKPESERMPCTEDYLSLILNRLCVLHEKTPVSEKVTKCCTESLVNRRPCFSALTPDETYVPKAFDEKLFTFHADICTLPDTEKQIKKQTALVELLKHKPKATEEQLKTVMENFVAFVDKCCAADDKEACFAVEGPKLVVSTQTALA
UniProt Q00535, sequence (whole entry, looked up): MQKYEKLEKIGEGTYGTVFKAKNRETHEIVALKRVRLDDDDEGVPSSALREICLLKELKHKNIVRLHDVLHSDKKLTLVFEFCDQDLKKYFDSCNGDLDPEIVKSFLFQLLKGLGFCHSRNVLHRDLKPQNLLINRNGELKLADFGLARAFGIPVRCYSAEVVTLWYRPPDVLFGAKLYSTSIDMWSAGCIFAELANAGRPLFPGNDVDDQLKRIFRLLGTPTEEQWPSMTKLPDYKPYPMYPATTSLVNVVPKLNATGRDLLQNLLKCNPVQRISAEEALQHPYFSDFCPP
UniProt O43570, sequence (whole entry, looked up): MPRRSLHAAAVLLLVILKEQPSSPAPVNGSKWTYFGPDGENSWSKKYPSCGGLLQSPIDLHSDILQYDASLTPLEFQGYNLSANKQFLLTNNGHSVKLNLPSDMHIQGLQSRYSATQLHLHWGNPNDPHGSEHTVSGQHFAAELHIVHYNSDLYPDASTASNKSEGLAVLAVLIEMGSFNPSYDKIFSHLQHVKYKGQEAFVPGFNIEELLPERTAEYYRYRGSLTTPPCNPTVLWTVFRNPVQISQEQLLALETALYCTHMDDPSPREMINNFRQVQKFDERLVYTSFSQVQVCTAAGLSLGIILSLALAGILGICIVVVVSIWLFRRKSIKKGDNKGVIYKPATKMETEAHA
UniProt Q13153, sequence (whole entry, looked up): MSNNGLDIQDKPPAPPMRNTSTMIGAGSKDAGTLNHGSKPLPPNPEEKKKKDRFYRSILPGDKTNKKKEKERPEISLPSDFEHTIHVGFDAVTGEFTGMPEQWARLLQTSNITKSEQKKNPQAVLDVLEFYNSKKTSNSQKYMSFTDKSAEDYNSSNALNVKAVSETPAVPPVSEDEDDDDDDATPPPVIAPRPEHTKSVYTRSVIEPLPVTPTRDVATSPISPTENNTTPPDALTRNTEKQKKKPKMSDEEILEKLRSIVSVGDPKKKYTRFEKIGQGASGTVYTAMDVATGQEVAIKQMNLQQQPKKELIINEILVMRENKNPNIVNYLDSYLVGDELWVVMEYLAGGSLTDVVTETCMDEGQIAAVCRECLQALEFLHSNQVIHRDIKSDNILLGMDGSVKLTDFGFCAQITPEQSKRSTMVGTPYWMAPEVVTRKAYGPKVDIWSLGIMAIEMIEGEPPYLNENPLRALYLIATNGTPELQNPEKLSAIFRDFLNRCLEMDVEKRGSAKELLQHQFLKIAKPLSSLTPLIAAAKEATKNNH
UniProt O43189, sequence (whole entry, unmodified, looked up): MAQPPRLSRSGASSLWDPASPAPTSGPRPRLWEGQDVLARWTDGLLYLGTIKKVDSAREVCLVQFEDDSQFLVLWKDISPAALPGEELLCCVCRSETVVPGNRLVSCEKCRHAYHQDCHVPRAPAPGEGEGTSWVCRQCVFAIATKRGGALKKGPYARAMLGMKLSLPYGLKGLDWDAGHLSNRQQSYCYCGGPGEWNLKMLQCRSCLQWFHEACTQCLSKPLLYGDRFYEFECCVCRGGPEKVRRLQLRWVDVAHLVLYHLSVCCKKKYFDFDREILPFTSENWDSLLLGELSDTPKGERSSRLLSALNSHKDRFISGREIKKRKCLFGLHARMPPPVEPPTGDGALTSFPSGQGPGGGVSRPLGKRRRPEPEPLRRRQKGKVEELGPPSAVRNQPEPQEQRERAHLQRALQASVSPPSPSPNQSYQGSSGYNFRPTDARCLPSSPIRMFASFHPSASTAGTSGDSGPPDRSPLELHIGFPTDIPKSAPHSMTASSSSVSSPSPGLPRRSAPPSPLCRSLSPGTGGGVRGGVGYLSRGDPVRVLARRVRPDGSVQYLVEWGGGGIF
UniProt P10636, sequence (whole entry, looked up): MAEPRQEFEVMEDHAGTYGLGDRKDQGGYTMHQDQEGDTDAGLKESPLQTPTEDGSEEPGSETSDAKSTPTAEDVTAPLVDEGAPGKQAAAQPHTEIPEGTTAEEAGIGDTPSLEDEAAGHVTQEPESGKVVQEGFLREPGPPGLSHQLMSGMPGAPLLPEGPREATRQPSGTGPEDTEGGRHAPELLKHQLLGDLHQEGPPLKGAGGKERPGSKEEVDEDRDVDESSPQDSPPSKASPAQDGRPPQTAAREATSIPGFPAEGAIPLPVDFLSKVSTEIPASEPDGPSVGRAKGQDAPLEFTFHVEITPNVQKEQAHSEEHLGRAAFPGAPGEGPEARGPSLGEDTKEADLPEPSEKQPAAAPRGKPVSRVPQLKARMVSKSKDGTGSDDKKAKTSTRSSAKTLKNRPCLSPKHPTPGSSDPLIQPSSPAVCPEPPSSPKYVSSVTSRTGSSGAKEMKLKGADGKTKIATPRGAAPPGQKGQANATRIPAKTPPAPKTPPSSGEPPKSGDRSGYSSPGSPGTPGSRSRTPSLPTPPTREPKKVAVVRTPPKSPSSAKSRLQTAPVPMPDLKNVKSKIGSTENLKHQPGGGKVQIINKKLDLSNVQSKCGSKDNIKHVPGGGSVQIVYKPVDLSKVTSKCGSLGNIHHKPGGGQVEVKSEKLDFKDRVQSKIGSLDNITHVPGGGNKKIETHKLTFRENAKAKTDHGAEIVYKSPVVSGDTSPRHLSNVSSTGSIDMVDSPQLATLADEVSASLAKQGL
UniProt P08697, sequence (whole entry, looked up): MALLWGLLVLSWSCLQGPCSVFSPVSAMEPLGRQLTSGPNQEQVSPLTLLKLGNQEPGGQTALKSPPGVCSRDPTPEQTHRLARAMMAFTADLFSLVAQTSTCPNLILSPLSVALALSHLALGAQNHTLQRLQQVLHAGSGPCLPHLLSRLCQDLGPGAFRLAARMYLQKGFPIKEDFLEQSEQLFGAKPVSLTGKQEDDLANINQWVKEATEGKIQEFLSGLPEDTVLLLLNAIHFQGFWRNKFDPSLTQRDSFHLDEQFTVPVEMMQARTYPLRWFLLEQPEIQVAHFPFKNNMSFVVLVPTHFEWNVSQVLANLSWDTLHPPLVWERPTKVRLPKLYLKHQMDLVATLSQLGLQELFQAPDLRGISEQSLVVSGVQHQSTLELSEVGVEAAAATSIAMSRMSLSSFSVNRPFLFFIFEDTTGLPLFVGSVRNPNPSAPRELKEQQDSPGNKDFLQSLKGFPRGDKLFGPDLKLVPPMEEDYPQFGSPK
UniProt P52306, sequence (whole entry, looked up): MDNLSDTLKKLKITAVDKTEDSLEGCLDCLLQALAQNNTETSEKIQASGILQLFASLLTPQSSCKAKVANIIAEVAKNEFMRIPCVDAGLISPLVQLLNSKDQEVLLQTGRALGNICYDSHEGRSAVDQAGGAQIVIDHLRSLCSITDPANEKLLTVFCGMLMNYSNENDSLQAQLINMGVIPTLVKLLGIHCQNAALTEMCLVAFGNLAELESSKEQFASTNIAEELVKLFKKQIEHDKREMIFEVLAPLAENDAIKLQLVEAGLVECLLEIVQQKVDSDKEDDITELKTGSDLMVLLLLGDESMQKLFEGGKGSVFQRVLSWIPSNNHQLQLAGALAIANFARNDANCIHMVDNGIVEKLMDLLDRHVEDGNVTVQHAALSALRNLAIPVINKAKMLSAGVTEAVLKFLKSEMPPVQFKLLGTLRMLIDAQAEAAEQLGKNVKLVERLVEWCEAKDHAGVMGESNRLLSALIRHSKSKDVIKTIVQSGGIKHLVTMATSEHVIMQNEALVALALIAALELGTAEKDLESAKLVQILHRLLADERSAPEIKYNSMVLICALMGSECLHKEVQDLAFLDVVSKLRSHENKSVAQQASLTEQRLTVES
UniProt P06702, sequence (whole entry, looked up): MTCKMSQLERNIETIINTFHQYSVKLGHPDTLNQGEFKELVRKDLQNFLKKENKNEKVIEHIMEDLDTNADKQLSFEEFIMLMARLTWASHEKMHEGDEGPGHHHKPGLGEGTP
UniProt Q9HC52, sequence (whole entry, looked up): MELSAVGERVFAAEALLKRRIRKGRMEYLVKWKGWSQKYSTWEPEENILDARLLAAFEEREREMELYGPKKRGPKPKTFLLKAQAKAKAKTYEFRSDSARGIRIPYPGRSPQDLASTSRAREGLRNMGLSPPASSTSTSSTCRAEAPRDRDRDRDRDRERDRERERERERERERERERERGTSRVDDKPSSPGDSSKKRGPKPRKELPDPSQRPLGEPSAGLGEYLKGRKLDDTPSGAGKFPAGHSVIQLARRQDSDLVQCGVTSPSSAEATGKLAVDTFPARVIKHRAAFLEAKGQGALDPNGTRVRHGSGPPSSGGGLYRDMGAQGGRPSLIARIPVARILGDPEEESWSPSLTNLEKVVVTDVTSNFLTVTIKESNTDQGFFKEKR

The Kd of CC(C)C[C@H](NC(=O)[C@H](CCCCN)NC(=O)[C@H](CCCCN)NC(=O)[C@H](C)NC(=O)[C@H](CCCCN)NC(=O)[C@H](CCCCN)NC(=O)[C@@H]1CCCN1C(=O)[C@@H](NC(=O)[C@H](CCCCN)NC(=O)[C@@H]1CCCN1)[C@@H](C)O)C(=O)O is reported as 11 ± 0.8 µM (Cyclin-dependent kinase 5, with p25 (CDK5, Homo sapiens, UniProt Q00535); substrate; 1.3 mM free Mg2+).
For C[C@H](NC(=O)[C@H](Cc1ccccc1)NC(=O)c1ccc(C(F)(F)F)cc1)C(=O)N[C@H](C(=O)N[C@@H](CCCC[N+](C)(C)C)C(=O)N[C@@H](CO)C(N)=O)C1CCCC1, the Kd was 1.61 µM (Chromobox protein homolog 8 (Homo sapiens, UniProt Q9HC52); binding, ITC; pH 8).
For O=C(Nc1cccc(-c2nn[nH]n2)c1)c1cc(-c2cncnc2)cc(C(F)(F)F)c1, the Kd was 42.1 ± 0.9 µM (Beta-lactamase CTX-M-14; surface plasmon resonance; 25 °C).
CCCCCCCCCCCCCC(=O)Nc1ccccc1SSc1ccccc1NC(=O)CCCCCCCCCCCCC has a Kd of 0.261 µM (ALB; binding, fluorescence quenching, no site marker; pH 7.4, 298 K).
The Kd of CCCCCCCC(=O)N[C@@H](CCN)C(=O)N[C@H](C(=O)N[C@@H](CCN)C(=O)N[C@H]1CCNC(=O)[C@H]([C@@H](C)O)NC(=O)[C@H](CCN)NC(=O)[C@H]([C@@H](C)O)NC(=O)[C@H](CC(C)C)NC(=O)[C@@H](Cc2ccccc2)NC(=O)[C@H](CCN)NC1=O)[C@@H](C)O is reported as greater than 25 µM (anti-polymyxin B mouse IgM mAb; SPR; 25 °C).
CC(=O)NCCN(CCC(=O)NCCN(CCC(=O)NCCN(CCC(=O)NCCC(N)=O)C(=O)[C@@H](N)CCCCN)C(=O)[C@@H](N)Cc1ccccc1)C(=O)[C@@H](N)Cc1ccccc1 has a Kd of 0.9 ± 0.2 µM (HIV-1 TAR RNA (18-44); fluorescence; 25 °C, with: 100-fold excess natural tRNA).
For CC(C)C[C@H](NC(=O)[C@@H](NC(=O)[C@H](CC(C)C)NC(=O)[C@H](CS)NC(=O)CNC(=O)[C@H](CO)NC(=O)[C@H](CCCCN)NC(=O)[C@H](CCCCN)NC(=O)[C@H](CCCCN)NC(=O)CNC(=O)[C@H](CCCNC(=N)N)NC(=O)[C@H](CCCNC(=N)N)NC(=O)[C@H](C)NC(=O)c1ccc2c(c1)C(=O)OC21c2ccc(O)cc2Oc2cc(O)ccc21)C(C)C)C(=O)O, the Kd was 1.9 ± 0.3 µM (Rap1 GTPase-GDP dissociation stimulator 1, SmgGDS-607 isoform (RAP1GDS1, Homo sapiens, UniProt P52306); binding, fluorescence anisotropy).
With CC(=O)NCCN(CCC(=O)NCCN(CCC(=O)NCCN(CCC(=O)NCCC(N)=O)C(=O)[C@@H](N)Cc1ccccc1)C(=O)[C@@H](N)Cc1ccccc1)C(=O)[C@@H](N)CCCNC(=N)N the Kd was 0.7 ± 0.15 µM (HIV-1 TAR RNA (18-44); fluorescence; 25 °C, with: 100-fold excess natural tRNA).
With Nc1ncnc2c1ncn2[C@@H]1O[C@H](CO)[C@@H](O[C@H]2O[C@H](CO)[C@@H](OP(=O)(O)O)[C@H](OP(=O)(O)O)[C@H]2O)[C@H]1O the Kd was 0.00882 µM (Inositol 1,4,5-trisphosphate-gated calcium channel ITPR1, IP3-binding core (Itpr1, Rattus norvegicus, UniProt P29994); binding, 3H-IP3 competition; IP3-binding core IBC).
O=c1c(OS(=O)(=O)O)c(-c2ccc(OS(=O)(=O)O)c(OS(=O)(=O)O)c2)oc2cc(OS(=O)(=O)O)cc(OCCCOc3cc(OS(=O)(=O)O)cc4oc(-c5ccc(OS(=O)(=O)O)c(OS(=O)(=O)O)c5)c(OS(=O)(=O)O)c(=O)c34)c12 gave a Kd of 11.9 µM (Alpha-2-antiplasmin (SERPINF2, Homo sapiens, UniProt P08697); microscale thermophoresis).
The Kd of CC(C)C[C@H](NC(=O)[C@@H]1CCCN1C(=O)[C@H](CCCCN)NC(=O)[C@H](CCCCN(CCc1ccccc1)C(C)C)NC(=O)[C@@H](NC(=O)CNC(=O)CN)C(C)C)C(=O)N[C@@H](CCCNC(=N)N)C(N)=O is reported as 13.7 ± 1.3 µM (PHD finger protein 1, Tudor domain F65A (Homo sapiens, UniProt O43189, F65A); binding, isothermal titration calorimetry; Tudor domain).
The Kd of O=C(Nc1cccc(-c2nn[nH]n2)c1)c1cc(-c2ccncc2)cc(C(F)(F)F)c1 is reported as 30.3 ± 0.6 µM (Beta-lactamase CTX-M-14; surface plasmon resonance; 25 °C).
OC(Cc1cc(-c2ccc(C(O)C(F)(F)F)s2)sc1-c1ccc(-c2sc(-c3ccc(C(O)C(F)(F)F)s3)cc2CC(O)C(F)(F)F)s1)C(F)(F)F (stereo not shown) gave a Kd of 1.08 ± 0.17 µM (Microtubule-associated protein tau, 0N4R isoform, aggregated (MAPT, Homo sapiens, UniProt P10636); binding, fluorescence; 50% sucrose tau fraction).
With CC1(C)CC(=O)C2=C(C1)Oc1ncnc(Nc3cccc(Cl)c3)c1C2c1ccccc1F (stereo not shown) the Kd was 2.72 µM (ALB; absorption titration; pH 7.2, 25 °C).
With CCCCCCCC(=O)N[C@@H](CCN)C(=O)N[C@H](C(=O)N[C@@H](CCN)C(=O)N[C@H]1CCNC(=O)[C@H]([C@@H](C)O)NC(=O)[C@H](CC(N)=O)NC(=O)[C@H](CCN)NC(=O)[C@H](CC(C)C)NC(=O)[C@@H](Cc2ccccc2)NC(=O)[C@H](CCN)NC1=O)[C@@H](C)O the Kd was greater than 25 µM (anti-polymyxin B mouse IgM mAb; SPR; 25 °C).
With O=C(Nc1cccc(-c2nn[nH]n2)c1)c1cc(-c2ccoc2)cc(C(F)(F)F)c1 the Kd was 26.1 ± 1.2 µM (Beta-lactamase CTX-M-14; surface plasmon resonance; 25 °C).
CCCCCCCCCCCC(=O)Nc1ccccc1SSc1ccccc1NC(=O)CCCCCCCCCCC gave a Kd of 21.6 µM (ALB; binding, fluorescence quenching; pH 7.4, 308 K).
CC(=O)NCCN(CCC(=O)NCCN(CCC(=O)NCCN(CCC(=O)NCCC(N)=O)C(=O)[C@@H](N)Cc1ccccc1)C(=O)[C@@H](N)CCCNC(=N)N)C(=O)[C@@H](N)CCCNC(=N)N has a Kd of 0.7 ± 0.2 µM (HIV-1 TAR RNA (18-44); fluorescence; 25 °C, with: 100-fold excess natural tRNA).
For Cc1ccc2oc(=O)c(-c3nc4cnccc4[nH]3)cc2c1, the Kd was 3.83 µM (Bifunctional arginine demethylase and lysyl-hydroxylase JMJD6 (Homo sapiens, UniProt Q6NYC1); binding, ITC).
COC(=O)CCCNC(=O)c1cc(S(N)(=O)=O)c(Cl)cc1NC1CCCCC1 gave a Kd of 0.056 µM (Carbonic anhydrase 12 (CA12, Homo sapiens, UniProt O43570); binding, ITC; pH 7).
The Kd of C[n+]1cc(NC(=O)c2ccc3ccc4ccc(C(=O)Nc5cc6ccccc6[n+](C)c5)nc4c3n2)cc2ccccc21 is reported as 0.0168 ± 0.0094 µM (G-quadruplex DNA 22CTA (human); binding, fluorimetric titration; 100 mM KCl buffer; pH 7.2, with: 5'-Cy5-labelled G4 2 nM).
With CCCCCCCC(=O)N[C@@H](CCN)C(=O)N[C@H](C(=O)N[C@@H](CCN)C(=O)N[C@H]1CCNC(=O)[C@H]([C@@H](C)O)NC(=O)[C@H](CCN)NC(=O)[C@H](CCN)NC(=O)[C@H](CC(C)C)NC(=O)[C@@H](Cc2ccccc2)NC(=O)[C@H]([C@@H](C)O)NC1=O)[C@@H](C)O the Kd was greater than 25 µM (anti-polymyxin B mouse IgM mAb; SPR; 25 °C).
For CC(C)C[C@H](NC(=O)[C@H](CCCNC(=N)N)NC(=O)CNC(=O)CNC(=O)[C@H](CO)NC(=O)[C@H](Cc1c[nH]cn1)NC(=O)[C@H](Cc1c[nH]c2ccccc12)NC(=O)[C@H](CO)NC(=O)CNC(=O)[C@H](Cc1c[nH]c2ccccc12)NC(=O)CNC(=O)[C@H](C)NC(=O)[C@@H](NC(=O)[C@H](CCC(N)=O)NC(=O)[C@H](CS)NC(=O)[C@H](CCCNC(=N)N)NC(=O)[C@@H](NC(=O)CN)[C@@H](C)O)C(C)C)C(=O)N[C@@H](CO)C(=O)N[C@@H](CCCNC(=N)N)C(=O)N[C@@H](Cc1ccccc1)C(=O)N1CCC[C@H]1C(=O)N[C@@H](CCCNC(=N)N)C(=O)N[C@@H](Cc1ccccc1)C(=O)N[C@H](C(=O)N[C@@H](CC(N)=O)C(=O)N[C@H](C(=O)O)C(C)C)C(C)C, the Kd was 0.0373 µM (Protein S100-A9 (S100A9, Homo sapiens, UniProt P06702); binding, ELISA).
For COC(=O)c1cc(O)c2ccccc2c1O, the Kd was less than 7 µM (Serine/threonine-protein kinase PAK 1, PBD (PAK1, Homo sapiens, UniProt Q13153); SPR; 25 °C).
With CCCCCCCCCCCCCCCC(=O)Nc1ccccc1SSc1ccccc1NC(=O)CCCCCCCCCCCCCCC the Kd was 282 µM (ALB; binding, fluorescence quenching; pH 7.4, 298 K, with: ibuprofen (site II marker)).
For CC(=O)NCCN(CC(=O)NCCN(CC(=O)NCCN(CC(=O)NCCC(N)=O)C(=O)C[C@@H](N)Cc1ccccc1)C(=O)C[C@@H](N)CCCNC(=N)N)C(=O)C[C@@H](N)Cc1ccccc1, the Kd was 1.1 ± 0.4 µM (HIV-1 TAR RNA (18-44); fluorescence; 25 °C, with: 100-fold excess natural tRNA).
The Kd of O=C(Nc1cccc(-c2nn[nH]n2)c1)c1cc(-c2cc[nH]n2)cc(C(F)(F)F)c1 is reported as 16.8 ± 0.5 µM (Beta-lactamase CTX-M-14; surface plasmon resonance; 25 °C).
CC(C)C[C@H](NC(=O)[C@@H](NC(=O)[C@@H]1CCCN1C(=O)[C@@H]1CCCN1C(=O)[C@@H]1CCCN1C(=O)[C@H](CC(N)=O)NC(=O)[C@@H]1CCCN1C(=O)[C@H](C)NC(=O)[C@@H]1CCCN1C(=O)CNC(=O)[C@H](CCCCN)NC(=O)[C@@H](N)[C@@H](C)O)C(C)C)C(=O)N[C@@H](CCCCN)C(=O)N[C@H](C(=O)O)C(C)C gave a Kd of 51.6 ± 7.6 µM (PACSIN1 SH3 domain, chicken; binding; pH 7).
The Kd of CC(=O)NCCN(CC(=O)NCCN(CC(=O)NCCN(CC(=O)NCCC(N)=O)C(=O)C[C@@H](N)CCCNC(=N)N)C(=O)C[C@@H](N)CCCNC(=N)N)C(=O)C[C@@H](N)Cc1ccccc1 is reported as 0.27 ± 0.04 µM (HIV-1 TAR RNA (18-44); fluorescence; 25 °C, with: 100-fold excess 15-mer duplex DNA).
With CCCCCCCC(=O)N[C@@H](CCN)C(=O)N[C@H](C(=O)N[C@@H](CCCCN)C(=O)N[C@H]1CCNC(=O)[C@H]([C@@H](C)O)NC(=O)[C@H](CCN)NC(=O)[C@H](CCN)NC(=O)[C@H](CC(C)C)NC(=O)[C@@H](Cc2ccccc2)NC(=O)[C@H](CCN)NC1=O)[C@@H](C)O the Kd was 13.1 µM (anti-polymyxin B mouse IgM mAb; SPR; 25 °C).
CC1(C)CC(=O)C2=C(C1)Oc1ncnc(Nc3ccc(Br)cc3)c1C2c1ccccc1F (stereo not shown) gave a Kd of 17.1 µM (ALB; absorption titration; pH 7.2, 25 °C).

Some of these lines once more:
CCCCCCCCCCCC(=O)Nc1ccccc1SSc1ccccc1NC(=O)CCCCCCCCCCC gave a Kd of 21.6 µM (ALB; binding, fluorescence quenching; pH 7.4, 308 K).
CC(=O)NCCN(CCC(=O)NCCN(CCC(=O)NCCN(CCC(=O)NCCC(N)=O)C(=O)[C@@H](N)Cc1ccccc1)C(=O)[C@@H](N)CCCNC(=N)N)C(=O)[C@@H](N)CCCNC(=N)N has a Kd of 0.7 ± 0.2 µM (HIV-1 TAR RNA (18-44); fluorescence; 25 °C, with: 100-fold excess natural tRNA).
